Assay results collected from several papers.
Every numbered part comes from another study and shows a few of its results, in no order.

Study 1 — method: RNAcompete; molecule type: RNA; matrix: in vitro; tested at: 20 nM; notes: 7-mer, probes averaged, single round; relative to: mean of 7-mers; reading: higher = stronger binding
Target: PABPC1L2, full length, GST fusion (mouse, UniProt A0ABA7IW68)
Construct (chain): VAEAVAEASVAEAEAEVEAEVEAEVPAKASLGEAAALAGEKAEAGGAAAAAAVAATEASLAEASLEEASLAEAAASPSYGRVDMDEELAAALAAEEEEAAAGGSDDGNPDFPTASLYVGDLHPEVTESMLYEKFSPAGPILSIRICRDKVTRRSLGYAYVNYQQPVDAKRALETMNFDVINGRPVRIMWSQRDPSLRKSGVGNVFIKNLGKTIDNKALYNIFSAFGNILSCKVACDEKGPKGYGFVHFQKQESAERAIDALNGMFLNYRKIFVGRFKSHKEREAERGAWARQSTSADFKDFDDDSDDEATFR
Strand | 7-mer Z-score
CCUCCUC | -0.405
UACGUUG | -0.15
GUGGUGA | -0.0681
ACAGAGA | 0.336
UCCGUUC | -0.369
AACAUUC | 0.258
AGGACUU | 0.0189
UUAACCC | -0.291
CCUGGGC | -0.246
AAACGUG | 0.611
UAACUUC | -0.306
UCCGUUA | -0.349
AGCGCCU | -0.0156
GAAUUGC | -0.186
UUUAUAG | 0.191
CGGAUCA | 0.0279
AGAAUGG | 0.144
GAGGGGG | 0.311
GCGUUUU | -0.255
CUGGAAC | -0.0246

Study 2 — method: protein binding microarray; molecule type: double-stranded DNA, one strand shown; matrix: in vitro; tested at: not given; relative to: not given; reading: higher = stronger binding
Target: Histone acetyltransferase KAT6A, both winged helices, GST fusion (KAT6A, Homo sapiens, UniProt Q92794, residues 1-181)
Notes: 8-mer, flanks averaged, mean of 2 arrays, mostly near background
Residues (chain): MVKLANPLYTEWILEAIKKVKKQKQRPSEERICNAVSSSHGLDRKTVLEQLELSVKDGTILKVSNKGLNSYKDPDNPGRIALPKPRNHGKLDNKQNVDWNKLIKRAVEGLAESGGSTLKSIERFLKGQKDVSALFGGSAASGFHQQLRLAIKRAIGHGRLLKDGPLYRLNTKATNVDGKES
Strand | E-score
ATTCTCCA | -0.125
AATCCACG | 0.00756
GAGTCTCA | -0.0772
CGGACTAG | 0.128
CGACAAAC | 0.0464
GTCTTAAA | 0.0519
AAGCCCTG | -0.0919
ACCCCGAA | 0.0792
ATACCTAC | -0.0616
AGACTTAT | -0.21
AGGGTCCC | -0.105
GAGAACGA | -0.0589
ATCTCCAG | -0.207
ATGTACTG | -0.176
ACGCTACA | -0.0191
GGGTTACA | 0.158
ACTGTTGC | -0.0679
CACACCCG | 0.122
AAGTACCT | -0.159
ACCAGTGG | -0.163
AAGACTAA | -0.0937
CCGATAGC | 0.115
GATTGTCA | 0.0902
TCTCAAAA | -0.196

Study 3 — method: RNA Bind-n-Seq; molecule type: RNA; matrix: in vitro; tested at: not given; relative to: input RNA pool; reading: higher = stronger binding
Target: RING finger protein unkempt homolog, zinc fingers 1-6, GST-SBP tag (UNK, Homo sapiens, UniProt Q9C0B0, residues 30-357)
Chain of UniProt Q9C0B0 (30-357, looked up): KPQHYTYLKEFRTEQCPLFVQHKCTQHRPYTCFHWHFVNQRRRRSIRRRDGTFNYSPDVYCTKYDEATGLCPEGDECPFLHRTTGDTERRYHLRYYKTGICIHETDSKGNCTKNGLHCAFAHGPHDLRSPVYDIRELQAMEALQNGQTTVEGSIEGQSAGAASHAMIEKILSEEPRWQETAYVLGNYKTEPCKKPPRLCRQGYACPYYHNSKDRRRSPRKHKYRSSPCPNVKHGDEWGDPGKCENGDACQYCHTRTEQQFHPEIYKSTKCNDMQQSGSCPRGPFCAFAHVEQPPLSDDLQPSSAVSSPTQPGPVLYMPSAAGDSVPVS
Notes: RNA with constant flanks, human and mouse sites, ends assumed
Shared flanks, not repeated: GGGAGUUCUACAGUCCGACGAUC … CAACAGAGGAUUGAGCAUCA
Strand | bound/input enrichment [ratio]
CCUUCUUUCUAGCCCUUCAAAGAUGCUGCCAGUGUUCGCCCUAGAGUUAUUACAAAGCCAGUGCCAAAACCCAGCCAUGGGCUCUUUGCAACCUCCCAGCUGCGCUCAUUCCAGCUGACA | 3.15
CGGACCCUGAUCCCACGCUACUUCCGCAGCAUCUUUGAGGGGGGUGCUACGGAGCUGUACUAUGUUCUUAAGCACCCCAAGGAGGCAUUCCACAGCAACUUUGUGUCCCUCGACUGUGAC | 0.143
GAAAUCCAUAUUUAUUUUGUAAUUAACUGUCAAGCCUGUGGAUGAUUUUUUUGAACUUGGUAGUUCAUAAAGGUUUACAGUGAAUAAAAGGAUAUCAUCUUGAGUAUAGCAAUAUCAAAA | 0.673
GGAGAGUAUAUGAGAGGCACAGGGUGUUUUUGCUGACACAACAGUGAAAGAGAAACAAGAACUUCCCUCGCUCAGUUACCAAGGCUCAGCAACCUGAGCAUGGAGCGGGUGUGAAGGGCC | 0.172
CAGCAAUAUGCUGCUGCAGCCCUCCCCACUCUGUACAACCAGAAUUUAUUGACACAGCAGAGUAUUGGUGCUGCUGGAAGCCAGAAGGAAGGUCCAGAAGGAGCCAACCUGUUCAUCUAU | 0.222
AUUGAAGUGUUCACUGACCUCAGCAGCCCGUUCAGCCAGGACCAACUGGACGUUAUAAUUUGUAACUUGAAGAAGUCUGGCAUCUCUCUGCAGUUCUUUUUGCCUUUUCCAAUCGACAAG | 0.175
UGGCGUUUCAGCAACAUGAAACAGUGGAAUGUCAACUGGGAAAUCAAAAUGGUCACCGUAGAGUUUGCAGAUGAAGUACGAUUGUCCUUCAUUUGUACUGAAGUAGAUUGCAAAGUGGUU | 0.821
CAAGGAGUAAUAGAAGAGAAUGAAGUUUAUAGUAACACUCUAGCUGGAGUCUGGGUGACAACUGGCAGCACUCCAGUACUGAGAAGAAACCGGAUACACAGUGGCAAGCAGGUUGGUGUU | 4.03
UCUACAUCUUCAUCUAUGCAGCCCAGCCCUGUAUCAAAUCAGUCACUUUUAUCAGAAUCUGUAGCAUCUUCUCAAUUGGACAGUACAUCUGUGGACAAAGCAGUACCUGAAACAGAAGAU | 0.299
AAGUGGUUGCUGCAGAAAGACAAAGACAGGAGGAAGGAGGUUAAACUGAACGAGCGCAUUAUAGCUACUUCCCAAGGACUACUGAUUCGCUCUGUUCAAGAUUCUGACCAAGGACUCUAC | 0.266
GUUAUGGGUGUGAGAGGUUUGCAAGGAUUUGUGGGAAGUACCUGCCCACAUAUAUGUACAGUAGUAAAUUUCAAAGAACUGGCAGAGCACCACCGAAGCAAGUAUCCUGGAUGUACCCCU | 0.619

Study 4 — method: RNA Bind-n-Seq; molecule type: RNA; matrix: in vitro; tested at: 365 nM; relative to: no-protein control; reading: higher = stronger binding
Target: RNA binding protein fox-1 homolog 2, RRM domain, GST-SBP tag (RBFOX2, Homo sapiens, UniProt O43251-10, residues 100-194)
Notes: natural RNA segment, single round, ends assumed
Shared flanks, not repeated: GGGAGUUCUACAGUCCGACGAUC … UGGAAUUCUCGGGUGCCAA
Target sequence (chain): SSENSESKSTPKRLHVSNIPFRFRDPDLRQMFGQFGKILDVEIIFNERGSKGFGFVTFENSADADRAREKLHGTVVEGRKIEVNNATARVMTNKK
Strand | RBNS enrichment (R)
AAUAGAUUCUUACCCAAUGCCACUGUCAGUAUCCCAGGUAGUGAAAUUCUUAAAGUGGUGGGGUAUUAGUACUAGUAGUUUUAUGUUGUCUAAUUCUAGCCAAGCUUCUG | 0.329
AUGAAGGUAUAUUUUGUGUUAUAGUUGUUGAUGAGUUCUUUGGUUUUCUGUAUUUUUCCCCCUCUCUUUAAAACAUCACUGAAAUUUCAAUAAAUUUUUAUUGAAAUGUC | 0.984
CGGGGCGGGUGCUUAGGCUUUCCUGCCCUGGUGGCCACACCAGCUGCUGUAUUUAUGUGCUUCAUAAGGCCCUGCUCUGUCUGCUAAAGCUAUGAAGAAAGAUGUGCAGA | 0.234
UGGUCCUGCCUGUAUGCUGGUUCACAUCCAUCUUUUCAUCUGCACACUCUUUUUCUCGGCGAAUGCUUGGAACUGGGUGCUGAGUGCUGGAACUAGCCUUGUGUCUAUGA | 0.342
GUGUAUAGAUGGAUGGAUGUAACUCAUACUGUACAUUUCCAUCAGGGCACUUAAAAGUUCUGUUAUUUUUGUUUGGUUUUGUUAUUUCAGUCCUCAGUUAAGGCAAGAAU | 0.669
UUGCUGCUAUUGUGUUAACAUUUUUGUUUUGCUUGCCAUGAGGCCCCAUUUCCACCUCCCAGUAAACUGACUUAUAAAUUGCUAUACUUUUCCUGUUUUUUCUGUUGCUG | 0.663
AUUUGAGUCUUCUGGCAACAUUUGGUGACCUACCCCAUAUCCAAUAUUUCCAGCGUUAGAUUGAGGAUGAGGUAGGGAGGUGAUCCAGAGAAGGCGGAGAAGGAAGAAGU | 0.429
GGGGAGCACUGGCAGGGAGAGACAUUCUUGACUCCUCUCUUCCCUGGUGUGUUGUGAUCCAGGGAAUGAAAAGAAAUUUGACCCUGGAUUGGUUCUCUCCUUGGACUUAA | 0.878
AUUUAGGAAUUCAAUUUUUGUUUCAGUGACCAAUGUCAAGUUGCAGGCUUUGUGUGUUGCAUAUUUAAUAUUUCUACUACCACCGUAUGUCAACUGGGUAAAGCCUUCCA | 0.486
UCACACUGUGGGCACCUCUUGCAUCGCCUGCCAUUGCUGUGGAGGGUGGCCAUGGGCCAAAGGAAAAAGCACUGUCCUAUCUCAAGGUCCACUGUGGAAAUGUCCACCUU | 1.37
CACUUAAUAGUGACUUUACAAAAUAAAAGUUAUAUUCUCAGUUGUUUAAAAUCACUAACCUAUGAUAACCACACCUCAAUUUGAAAGUAGAUUUAAAAUUAUUCCCUGAC | 0.417
CAUCUGCCACAUUGAUGAUUAAAUUAGCAGUUUAGAUAACUUGAGUCCCUUUCCCUUUAUAUUUGAGAUGAGGUCUAGAUAUGUAGUCCUGCCUGGCCUCCAAUUUGUAA | 0.508

Study 5 — method: aptamer microarray, sandwich; molecule type: DNA with 2'F-ANA; matrix: in vitro; tested at: 200 nM; together with: Cy3 exosite-II aptamer, 400 nM; reading: higher = stronger binding; strand: GGTTGGTGTGGTTGG
Target: Prothrombin, mature alpha-thrombin (F2, Homo sapiens, UniProt P00734)
Notes: whole 15-mer aptamer, many near background
Modification | mean fluorescence intensity
2'F-ANA at 5 6 13 14 15 | 46.3 a.u.
2'F-ANA at 1 3 6 8 10 13 14 15 | 73.2 a.u.
2'F-ANA at 1 2 11 14 15 | 50.5 a.u.
2'F-ANA at 4 10 11 12 13 14 15 | 66.3 a.u.
2'F-ANA at 1 3 4 6 7 9 10 11 12 13 14 15 | 55.2 a.u.
2'F-ANA at 3 5 6 9 10 13 14 | 50.2 a.u.
2'F-ANA at 1 3 4 5 8 11 13 14 15 | 50 a.u.
2'F-ANA at 1 2 3 5 6 8 9 10 12 13 | 50.2 a.u.
2'F-ANA at 1 7 11 12 13 15 | 289 a.u.
2'F-ANA at 3 4 5 7 10 13 15 | 49.3 a.u.
2'F-ANA at 2 5 6 7 8 10 11 14 15 | 50.4 a.u.
2'F-ANA at 1 2 6 8 9 10 12 13 | 88 a.u.
2'F-ANA at 2 4 5 7 8 9 10 14 15 | 48.2 a.u.
2'F-ANA at 3 4 5 6 10 11 14 | 43.2 a.u.
2'F-ANA at 1 3 6 12 13 15 | 391 a.u.
2'F-ANA at 3 4 5 6 8 9 11 13 14 15 | 49.1 a.u.

Study 6 — method: universal PBM; molecule type: double-stranded DNA, one strand shown; matrix: in vitro; tested at: not given; reading: higher = stronger binding
Target: Sal-like protein 4, full length isoform B (SALL4, Homo sapiens, UniProt Q9UJQ4-2, residues 1-616)
Notes: 8-mer, flanks averaged, mean of replicates
Strand | E-score
CCCACCAC | -0.183
TACGGTAA | 0.223
ACTTGCGC | -0.167
CGATATAG | 0.128
CAACGGAC | -0.105
CCATTCAA | 0.134
GGCGGGGA | -0.0725
TGAACAAA | 0.153
CATGCCCA | -0.339
AATCTGAC | 0.0828
AGTGTTAA | 0.248
CCATCGCG | -0.0534
ATGTACTG | 0.113
CGGGAATC | -0.242
AGAATCCT | -0.0548
AGGCTATC | -0.0631
ACCAAACA | 0.238
GAGTCAAC | 0.00201
ATGCGGTA | -0.0422
AGTCGGTG | -0.324
AGTCCATA | 0.144
TCCACAGA | 0.008
AAGGGTCA | -0.0754
ACTGTCAT | 0.211
AAAGATAA | 0.343

Repeated from above (study 2):
Strand | E-score
AAGTACCT | -0.159
AAGACTAA | -0.0937
GATTGTCA | 0.0902
CACACCCG | 0.122
AATCCACG | 0.00756
ACTGTTGC | -0.0679
ATCTCCAG | -0.207
GAGAACGA | -0.0589
ACCAGTGG | -0.163
ATGTACTG | -0.176
CGGACTAG | 0.128
GAGTCTCA | -0.0772
CGACAAAC | 0.0464
ATTCTCCA | -0.125
ATACCTAC | -0.0616
CCGATAGC | 0.115
